Assay results gathered from unrelated publications.
± marks the error that the study gave.
Scn2a: Sodium channel protein type 2 subunit alpha (Scn2a, Rattus norvegicus, UniProt P04775)
Scn3a: Sodium channel protein type 3 subunit alpha (Scn3a, Rattus norvegicus, UniProt P08104)
Secreted effector protein C403A/D356A: Secreted effector protein (Yersinia pestis, UniProt O68720, C403A/D356A)
Scn4a: Sodium channel protein type 4 subunit alpha (Scn4a, Rattus norvegicus, UniProt P15390)

The chains behind the UniProt entries cited, without tags or fusion partners.
UniProt P04775, whole entry: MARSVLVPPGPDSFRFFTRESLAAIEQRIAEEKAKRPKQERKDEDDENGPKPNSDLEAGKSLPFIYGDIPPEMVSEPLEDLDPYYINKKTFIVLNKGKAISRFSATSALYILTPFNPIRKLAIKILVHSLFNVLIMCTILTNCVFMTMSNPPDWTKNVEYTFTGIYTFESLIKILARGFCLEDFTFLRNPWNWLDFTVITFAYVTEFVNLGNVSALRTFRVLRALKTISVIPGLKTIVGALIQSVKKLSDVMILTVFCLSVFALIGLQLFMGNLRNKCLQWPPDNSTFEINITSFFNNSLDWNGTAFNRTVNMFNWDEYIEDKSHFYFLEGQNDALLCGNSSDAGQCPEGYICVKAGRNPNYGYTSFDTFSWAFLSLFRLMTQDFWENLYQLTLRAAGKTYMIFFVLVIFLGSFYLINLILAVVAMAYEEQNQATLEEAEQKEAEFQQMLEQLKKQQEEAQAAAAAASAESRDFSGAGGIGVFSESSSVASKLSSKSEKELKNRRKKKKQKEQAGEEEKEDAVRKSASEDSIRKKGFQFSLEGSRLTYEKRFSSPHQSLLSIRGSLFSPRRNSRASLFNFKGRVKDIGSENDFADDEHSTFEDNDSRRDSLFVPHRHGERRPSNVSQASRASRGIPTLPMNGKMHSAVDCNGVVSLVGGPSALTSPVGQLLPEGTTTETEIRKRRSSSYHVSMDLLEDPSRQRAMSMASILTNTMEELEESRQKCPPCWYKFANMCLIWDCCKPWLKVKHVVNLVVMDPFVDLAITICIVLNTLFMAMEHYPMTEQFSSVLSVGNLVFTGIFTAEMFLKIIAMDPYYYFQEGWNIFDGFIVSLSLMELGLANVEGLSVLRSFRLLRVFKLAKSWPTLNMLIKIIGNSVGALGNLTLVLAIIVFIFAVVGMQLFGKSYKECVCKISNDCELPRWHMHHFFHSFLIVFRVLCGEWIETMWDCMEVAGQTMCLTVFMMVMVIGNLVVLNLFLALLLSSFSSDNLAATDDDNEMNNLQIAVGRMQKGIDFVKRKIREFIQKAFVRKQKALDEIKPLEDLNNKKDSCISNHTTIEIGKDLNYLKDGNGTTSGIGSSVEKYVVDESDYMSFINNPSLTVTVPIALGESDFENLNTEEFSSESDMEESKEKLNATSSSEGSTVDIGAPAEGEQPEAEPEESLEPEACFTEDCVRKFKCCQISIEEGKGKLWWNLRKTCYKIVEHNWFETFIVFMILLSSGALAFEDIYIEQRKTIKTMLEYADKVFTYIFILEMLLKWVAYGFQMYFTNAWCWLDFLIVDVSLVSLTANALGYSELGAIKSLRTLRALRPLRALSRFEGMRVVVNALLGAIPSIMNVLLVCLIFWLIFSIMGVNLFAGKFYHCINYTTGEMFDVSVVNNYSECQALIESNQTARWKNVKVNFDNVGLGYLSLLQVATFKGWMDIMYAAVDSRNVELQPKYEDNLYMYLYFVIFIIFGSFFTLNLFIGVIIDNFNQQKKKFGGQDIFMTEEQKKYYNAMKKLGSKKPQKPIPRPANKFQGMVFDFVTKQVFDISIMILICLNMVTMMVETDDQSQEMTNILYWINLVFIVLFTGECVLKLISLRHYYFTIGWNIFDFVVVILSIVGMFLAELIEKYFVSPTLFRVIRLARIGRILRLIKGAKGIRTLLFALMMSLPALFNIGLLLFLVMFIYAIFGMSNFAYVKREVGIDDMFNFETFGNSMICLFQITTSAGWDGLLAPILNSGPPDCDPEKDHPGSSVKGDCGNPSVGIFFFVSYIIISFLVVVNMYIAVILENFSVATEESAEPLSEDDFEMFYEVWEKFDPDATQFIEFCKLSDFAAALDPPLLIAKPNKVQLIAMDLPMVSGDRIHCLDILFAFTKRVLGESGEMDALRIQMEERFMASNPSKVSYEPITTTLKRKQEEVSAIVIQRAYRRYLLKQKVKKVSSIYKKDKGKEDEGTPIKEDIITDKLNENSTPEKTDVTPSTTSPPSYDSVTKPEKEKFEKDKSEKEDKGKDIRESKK
UniProt P08104, whole entry: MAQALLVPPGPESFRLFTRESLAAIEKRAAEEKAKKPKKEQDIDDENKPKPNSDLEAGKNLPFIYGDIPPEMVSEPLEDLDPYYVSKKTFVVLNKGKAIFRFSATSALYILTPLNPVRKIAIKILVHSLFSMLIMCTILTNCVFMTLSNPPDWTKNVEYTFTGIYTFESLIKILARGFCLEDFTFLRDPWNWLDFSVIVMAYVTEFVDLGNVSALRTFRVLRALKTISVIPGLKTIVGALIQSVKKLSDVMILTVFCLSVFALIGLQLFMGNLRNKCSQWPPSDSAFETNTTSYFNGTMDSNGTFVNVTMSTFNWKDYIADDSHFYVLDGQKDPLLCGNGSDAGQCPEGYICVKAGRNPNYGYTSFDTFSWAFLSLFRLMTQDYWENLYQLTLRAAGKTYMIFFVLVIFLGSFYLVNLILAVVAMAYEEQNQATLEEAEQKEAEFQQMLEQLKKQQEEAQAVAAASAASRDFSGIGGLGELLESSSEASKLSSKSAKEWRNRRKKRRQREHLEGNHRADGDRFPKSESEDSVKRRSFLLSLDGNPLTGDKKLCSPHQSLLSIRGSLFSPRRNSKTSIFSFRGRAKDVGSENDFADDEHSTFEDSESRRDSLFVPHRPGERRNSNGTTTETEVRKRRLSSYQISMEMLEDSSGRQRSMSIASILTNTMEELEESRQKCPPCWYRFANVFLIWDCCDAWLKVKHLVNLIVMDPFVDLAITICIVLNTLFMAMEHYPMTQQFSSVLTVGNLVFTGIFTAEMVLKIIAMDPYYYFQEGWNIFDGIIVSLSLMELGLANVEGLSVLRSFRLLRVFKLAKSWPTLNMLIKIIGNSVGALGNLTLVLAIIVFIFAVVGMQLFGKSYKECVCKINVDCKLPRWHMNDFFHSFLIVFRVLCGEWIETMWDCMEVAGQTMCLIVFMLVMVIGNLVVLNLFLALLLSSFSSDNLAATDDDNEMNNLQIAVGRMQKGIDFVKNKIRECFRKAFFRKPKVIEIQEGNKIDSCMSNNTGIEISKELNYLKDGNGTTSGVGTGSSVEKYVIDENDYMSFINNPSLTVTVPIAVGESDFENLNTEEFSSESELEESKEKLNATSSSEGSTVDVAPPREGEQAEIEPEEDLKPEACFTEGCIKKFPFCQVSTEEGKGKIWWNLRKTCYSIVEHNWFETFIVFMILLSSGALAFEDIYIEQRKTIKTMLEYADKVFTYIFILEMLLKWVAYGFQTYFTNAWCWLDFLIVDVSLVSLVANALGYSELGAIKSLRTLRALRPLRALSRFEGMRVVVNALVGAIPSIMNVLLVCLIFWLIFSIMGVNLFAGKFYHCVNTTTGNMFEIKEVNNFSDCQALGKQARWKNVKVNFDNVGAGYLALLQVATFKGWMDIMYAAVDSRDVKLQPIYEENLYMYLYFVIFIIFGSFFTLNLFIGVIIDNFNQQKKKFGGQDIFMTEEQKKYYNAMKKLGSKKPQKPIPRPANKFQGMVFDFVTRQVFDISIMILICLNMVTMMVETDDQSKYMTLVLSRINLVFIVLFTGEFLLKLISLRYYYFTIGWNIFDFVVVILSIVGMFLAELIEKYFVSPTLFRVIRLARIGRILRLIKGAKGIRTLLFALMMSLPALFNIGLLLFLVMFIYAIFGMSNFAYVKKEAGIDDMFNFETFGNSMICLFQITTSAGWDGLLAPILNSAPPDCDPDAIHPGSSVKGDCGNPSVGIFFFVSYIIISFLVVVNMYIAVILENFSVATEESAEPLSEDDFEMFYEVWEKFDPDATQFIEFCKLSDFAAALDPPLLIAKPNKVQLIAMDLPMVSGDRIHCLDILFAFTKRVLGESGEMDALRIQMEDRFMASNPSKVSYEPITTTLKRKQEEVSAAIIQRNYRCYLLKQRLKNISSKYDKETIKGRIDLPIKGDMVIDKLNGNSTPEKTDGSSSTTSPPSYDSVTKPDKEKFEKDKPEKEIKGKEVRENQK
UniProt P15390, whole entry: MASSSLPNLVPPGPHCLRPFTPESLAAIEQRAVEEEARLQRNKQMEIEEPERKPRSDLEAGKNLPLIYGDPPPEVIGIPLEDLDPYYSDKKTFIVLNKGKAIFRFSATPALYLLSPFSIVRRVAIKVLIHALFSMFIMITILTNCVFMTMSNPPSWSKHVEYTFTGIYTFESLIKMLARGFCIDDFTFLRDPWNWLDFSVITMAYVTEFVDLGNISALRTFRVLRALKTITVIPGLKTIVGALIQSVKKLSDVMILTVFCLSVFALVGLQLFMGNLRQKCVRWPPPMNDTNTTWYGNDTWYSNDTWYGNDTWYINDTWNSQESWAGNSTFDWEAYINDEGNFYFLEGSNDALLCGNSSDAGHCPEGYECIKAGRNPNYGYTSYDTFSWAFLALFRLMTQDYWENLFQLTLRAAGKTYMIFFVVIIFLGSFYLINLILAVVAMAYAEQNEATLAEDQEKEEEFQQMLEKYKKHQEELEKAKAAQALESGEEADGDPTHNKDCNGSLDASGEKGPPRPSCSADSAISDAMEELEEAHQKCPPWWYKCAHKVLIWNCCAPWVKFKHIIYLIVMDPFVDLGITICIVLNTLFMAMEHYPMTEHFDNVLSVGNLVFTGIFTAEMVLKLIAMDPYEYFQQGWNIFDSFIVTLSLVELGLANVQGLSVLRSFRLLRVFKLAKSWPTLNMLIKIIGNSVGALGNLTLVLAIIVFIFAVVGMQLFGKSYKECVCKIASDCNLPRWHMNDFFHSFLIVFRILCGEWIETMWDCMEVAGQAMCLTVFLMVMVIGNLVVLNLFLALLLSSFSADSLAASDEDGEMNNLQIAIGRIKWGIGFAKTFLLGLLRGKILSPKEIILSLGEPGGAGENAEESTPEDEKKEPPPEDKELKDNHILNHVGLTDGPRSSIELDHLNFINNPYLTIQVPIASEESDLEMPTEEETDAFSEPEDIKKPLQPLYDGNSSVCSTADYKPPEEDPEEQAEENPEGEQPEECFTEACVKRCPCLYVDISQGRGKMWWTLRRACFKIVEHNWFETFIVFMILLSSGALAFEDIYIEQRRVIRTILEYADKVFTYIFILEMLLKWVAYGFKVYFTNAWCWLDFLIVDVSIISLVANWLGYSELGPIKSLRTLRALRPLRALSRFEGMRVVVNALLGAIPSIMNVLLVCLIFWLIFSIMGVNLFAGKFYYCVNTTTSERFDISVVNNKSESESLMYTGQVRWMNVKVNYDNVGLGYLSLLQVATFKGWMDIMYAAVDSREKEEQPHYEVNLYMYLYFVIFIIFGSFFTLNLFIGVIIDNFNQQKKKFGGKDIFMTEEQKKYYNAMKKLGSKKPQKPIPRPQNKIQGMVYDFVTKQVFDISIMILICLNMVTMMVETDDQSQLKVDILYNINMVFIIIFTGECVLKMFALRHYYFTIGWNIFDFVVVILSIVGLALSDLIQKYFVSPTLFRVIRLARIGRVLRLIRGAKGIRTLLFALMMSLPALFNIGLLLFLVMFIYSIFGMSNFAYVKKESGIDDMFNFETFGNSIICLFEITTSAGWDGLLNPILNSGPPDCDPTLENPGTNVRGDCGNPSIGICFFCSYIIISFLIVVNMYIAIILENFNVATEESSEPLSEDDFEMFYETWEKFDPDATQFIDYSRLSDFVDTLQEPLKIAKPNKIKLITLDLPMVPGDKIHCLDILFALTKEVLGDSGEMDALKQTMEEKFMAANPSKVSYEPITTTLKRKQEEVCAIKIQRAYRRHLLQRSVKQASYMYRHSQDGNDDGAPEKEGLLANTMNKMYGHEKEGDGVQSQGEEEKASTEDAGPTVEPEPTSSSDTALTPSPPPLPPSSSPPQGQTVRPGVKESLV
UniProt P22303, whole entry, looked up: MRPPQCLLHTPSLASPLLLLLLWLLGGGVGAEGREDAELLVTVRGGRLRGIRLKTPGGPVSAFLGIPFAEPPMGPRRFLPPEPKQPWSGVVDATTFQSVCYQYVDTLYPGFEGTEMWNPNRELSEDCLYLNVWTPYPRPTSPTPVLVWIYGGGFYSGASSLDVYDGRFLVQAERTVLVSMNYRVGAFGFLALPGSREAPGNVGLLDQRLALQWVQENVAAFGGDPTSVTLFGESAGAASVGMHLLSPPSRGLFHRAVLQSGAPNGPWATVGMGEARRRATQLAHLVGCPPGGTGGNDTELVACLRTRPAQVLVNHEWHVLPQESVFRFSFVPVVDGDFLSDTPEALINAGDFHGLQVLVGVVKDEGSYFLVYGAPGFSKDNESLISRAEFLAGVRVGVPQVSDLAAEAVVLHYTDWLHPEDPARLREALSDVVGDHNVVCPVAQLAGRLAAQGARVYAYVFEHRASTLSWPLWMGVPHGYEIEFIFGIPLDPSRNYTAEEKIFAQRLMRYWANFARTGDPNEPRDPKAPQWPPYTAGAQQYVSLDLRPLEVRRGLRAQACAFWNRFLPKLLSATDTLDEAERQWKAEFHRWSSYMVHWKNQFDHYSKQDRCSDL

Structure (SMILES) = CC(C(=O)O)c1nn(C)c2nc(N)[nH]c(=O)c2c1=O (stereo not drawn); target or system = Dihydropteroate synthase (Bacillus anthracis, UniProt Q81VW8); assay = isothermal titration calorimetry; conditions = pH 7.6; quantity = Kd; value = 0.124 ± 0.017 µM
Structure (SMILES) = C[C@@H]1NC(=O)[C@H](Cc2c[nH]cn2)NC(=O)[C@H](CC(=O)O)NC(=O)[C@H](CCCNC(=N)N)NC(=O)[C@@H]2CSSC[C@H](NC(=O)[C@H](CC(N)=O)NC(=O)[C@@H]3CCC(=O)N3)C(=O)N[C@H]3C[Se][Se]C[C@H](NC(=O)[C@H](CCCNC(=N)N)NC1=O)C(=O)N[C@H](C(N)=O)CSSC[C@H](NC(=O)CNC(=O)CNC(=O)[C@H](CC(N)=O)NC3=O)C(=O)N[C@@H](CO)C(=O)N[C@@H](CO)C(=O)N[C@@H](CCCCN)C(=O)N[C@@H](Cc1c[nH]c3ccccc13)C(=O)N2; target or system = Scn2a; assay = ion current, blocker, electrophysiology; quantity = Kd; value = 0.067 ± 0.018 µM
Structure (SMILES) = O=[N+]([O-])c1cc([As](O)O)ccc1O; target or system = GLS (Homo sapiens, UniProt O94925); assay = binding; conditions = 20 °C; quantity = Kd; value = 30 µM
Structure (SMILES) = CC(C)[C@H](N)C(=O)NCC(=O)N[C@@H](CCC(=O)O)C(=O)N[C@@H](CCCNC(=N)N)C(=O)N[C@@H](C)C(=O)N[C@H]1CSSC[C@@H]2NC(=O)[C@H](CCCNC(=N)N)NC(=O)[C@H](CO)NC(=O)[C@H](Cc3cnc[nH]3)NC(=O)[C@H](CC(=O)O)NC(=O)[C@H](CCCNC(=N)N)NC(=O)[C@H](C)NC(=O)[C@H](Cc3c[nH]c4ccccc34)NC(=O)[C@H](CCCNC(=N)N)NC(=O)CNC(=O)[C@H](CSSC[C@@H](C(N)=O)NC2=O)NC(=O)CNC(=O)[C@H](CCCNC(=N)N)NC(=O)[C@H](CCCCN)NC(=O)CNC(=O)[C@H](CC(N)=O)NC(=O)[C@H](CCCCN)NC1=O; target or system = Scn3a; assay = sodium current, blocker, two-electrode voltage clamp; test system = Xenopus laevis oocytes; quantity = Kd; value = 15.7 ± 2.6 µM
Structure (SMILES) = N[C@@H](Cc1ccc(OP(=O)(O)O)cc1)C(=O)O; target or system = Secreted effector protein C403A/D356A; assay = surface plasmon resonance; conditions = immobilized protein; quantity = Kd; value = 10000 µM
Structure (SMILES) = CC[C@H](C)[C@@H]1NC(=O)[C@H](CCCNC(=N)N)NC(=O)[C@@H](N)CSSC[C@@H]2NC(=O)[C@@H]3CSSC[C@@H](C(=O)N[C@H](C(=O)O)C(C)C)NC(=O)[C@H](CCCCN)NC(=O)[C@H](CC(N)=O)NC(=O)[C@H](Cc4ccccc4)NC(=O)[C@H](CCCNC(=N)N)NC(=O)[C@H](CC(N)=O)NC(=O)[C@H](CSSC[C@H](NC(=O)[C@H](CCCCN)NC(=O)[C@H](CCC(N)=O)NC(=O)[C@H](CC(N)=O)NC(=O)[C@@H]4C[C@@H](O)CN4C1=O)C(=O)N[C@@H](Cc1ccccc1)C(=O)N[C@@H](CCC(N)=O)C(=O)N[C@@H](Cc1c[nH]cn1)C(=O)N[C@@H](CC(C)C)C(=O)N[C@@H](CC(=O)O)C(=O)N[C@@H](CC(=O)O)C(=O)N3)NC(=O)[C@H](CCCCN)NC(=O)[C@H](CCCNC(=N)N)NC(=O)[C@H](CO)NC2=O; target or system = Sh (Drosophila melanogaster, UniProt P08510, del6-46); assay = potassium current, two-electrode voltage clamp; test system = Xenopus oocytes; conditions = external K 2 mM, zero voltage; quantity = Kd; value = 0.403 ± 0.04 µM
Structure (SMILES) = O=C(NC1CCN(c2ncnc3[nH]cnc23)CC1)c1cccc(S(=O)(=O)Nc2ccc(Cl)cc2)c1; target or system = SARS-CoV-2; test system = Wuhan-Hu-1; conditions = 0.2743 µM; scale = baseline: untreated infected cells; quantity = relative infection; value = 68.8%
Structure (SMILES) = O=C(NS(=O)(=O)OC[C@H]1O[C@@H](n2cnc3c(NCc4ccccc4)ncnc32)[C@H](O)[C@@H]1O)c1ccccc1O; target or system = Yersiniabactin siderophore biosynthetic protein (Yersinia pseudotuberculosis serotype I, UniProt Q3V7P9); assay = binding; quantity = Kd; value = 0.00134 ± 0.00029 µM
Structure (SMILES) = O=C(NC1CCN(c2ncnc3[nH]cnc23)CC1)c1cccc(NS(=O)(=O)c2ccc(Cl)cc2)c1; target or system = SARS-CoV-2; test system = Wuhan-Hu-1; conditions = 0.03048 µM; scale = baseline: untreated infected cells; quantity = relative infection; value = 83.1%
Structure (SMILES) = CC[C@H](C)[C@H](NC(=O)[C@H](C)NC(=O)[C@H](CCC(=O)O)NC(=O)[C@H](CCC(=O)O)NC(=O)[C@H](CC(C)C)NC(=O)[C@H](CCCCN)NC(=O)[C@H](CCCCN)NC(=O)[C@H](CCSC)NC(=O)[C@H](CCC(=O)O)NC(=O)[C@H](Cc1ccc(O)cc1)NC(=O)[C@H](CCC(=O)O)NC(=O)[C@H](CC(C)C)NC(=O)[C@H](CC(=O)O)NC(=O)[C@H](CC(C)C)NC(=O)[C@H](Cc1ccccc1)NC(=O)[C@@H](NC(=O)[C@@H](NC(=O)[C@H](CC(N)=O)NC(=O)[C@@H](NC(=O)[C@H](CCC(N)=O)NC(=O)[C@H](CC(=O)O)NC(=O)[C@H](CC(C)C)NC(=O)[C@@H](N)CO)[C@@H](C)CC)C(C)C)[C@@H](C)O)C(=O)N[C@@H](CCCCN)C(=O)N[C@@H](CCCCN)C(=O)N[C@@H](CC(C)C)C(=O)N[C@@H](CCC(=O)O)C(=O)N[C@@H](CCC(=O)O)C(=O)N[C@@H](CO)C(=O)N[C@@H](Cc1ccc(O)cc1)C(=O)N[C@H](C(=O)N[C@@H](CC(=O)O)C(=O)N[C@@H](CC(C)C)C(=O)N[C@@H](CCCCN)C(=O)N[C@@H](CCC(=O)O)C(=O)N[C@@H](CC(C)C)C(=O)O)[C@@H](C)CC; target or system = SARS-CoV-2 Alpha pseudovirus; assay = pseudovirus infection, inhibitor, luciferase; test system = Caco-2; conditions = 24 h, dual mutations; quantity = IC50; value = 0.595 µM
Structure (SMILES) = C[C@@H]1NC(=O)[C@H](CCCNC(=N)N)NC(=O)[C@H](CO)NC(=O)[C@H](Cc2cnc[nH]2)NC(=O)[C@H](CC(=O)O)NC(=O)[C@H](CCCNC(=N)N)NC(=O)[C@@H]2CSSC[C@H](N)C(=O)N[C@@H](C)C(=O)N[C@@H](CC(N)=O)C(=O)N[C@@H](CSSC[C@@H](C(N)=O)NC1=O)C(=O)N[C@@H](CO)C(=O)N[C@@H](CO)C(=O)N[C@@H](CCCCN)C(=O)N[C@@H](Cc1c[nH]c3ccccc13)C(=O)N2; target or system = Scn4a; assay = sodium current, blocker, two-electrode voltage clamp; test system = Xenopus oocytes; quantity = Kd; value = 0.37 ± 0.11 µM
Structure (SMILES) = C[C@@H]1NC(=O)[C@H](Cc2c[nH]cn2)NC(=O)[C@H](CC(=O)O)NC(=O)[C@H](CCCNC(=N)N)NC(=O)[C@@H]2C[Se][Se]C[C@H](NC(=O)[C@H](CC(N)=O)NC(=O)[C@@H]3CCC(=O)N3)C(=O)N[C@H]3CSSC[C@H](NC(=O)[C@H](CCCNC(=N)N)NC1=O)C(=O)N[C@H](C(N)=O)CSSC[C@H](NC(=O)CNC(=O)CNC(=O)[C@H](CC(N)=O)NC3=O)C(=O)N[C@@H](CO)C(=O)N[C@@H](CO)C(=O)N[C@@H](CCCCN)C(=O)N[C@@H](Cc1c[nH]c3ccccc13)C(=O)N2; target or system = Scn2a; assay = ion current, blocker, electrophysiology; quantity = Kd; value = 0.046 ± 0.038 µM
Structure (SMILES) = CC(C)[C@H](N)C(=O)NCC(=O)N[C@@H](CCC(=O)O)C(=O)N[C@@H](CCCNC(=N)N)C(=O)N[C@H]1C[Se][Se]C[C@@H]2NC(=O)[C@H](Cc3c[nH]c4ccccc34)NC(=O)[C@H](CCCNC(=N)N)NC(=O)CNC(=O)[C@H](CSSC[C@@H](C(N)=O)NC(=O)[C@H](C)NC(=O)[C@H](CCCNC(=N)N)NC(=O)[C@H](CO)NC(=O)[C@H](Cc3c[nH]cn3)NC(=O)[C@H](CC(=O)O)NC(=O)[C@H](CCCNC(=N)N)NC2=O)NC(=O)CNC(=O)[C@H](CCCNC(=N)N)NC(=O)[C@H](CCCCN)NC(=O)CNC(=O)[C@H](CC(N)=O)NC(=O)[C@H](CCCCN)NC(=O)[C@H](C)NC1=O; target or system = Scn4a; assay = sodium current, blocker, two-electrode voltage clamp; test system = Xenopus laevis oocytes; quantity = Kd; value = 0.001 µM
Structure (SMILES) = CC[C@H](C)[C@H](NC(=O)[C@H](C)NC(=O)[C@H](CCC(=O)O)NC(=O)[C@H](CCC(=O)O)NC(=O)[C@H](CC(C)C)NC(=O)[C@H](CCCCN)NC(=O)[C@H](CCCCN)NC(=O)[C@H](CCSC)NC(=O)[C@H](CCC(=O)O)NC(=O)[C@H](Cc1ccc(O)cc1)NC(=O)[C@H](CCC(=O)O)NC(=O)[C@H](CC(C)C)NC(=O)[C@H](CC(=O)O)NC(=O)[C@H](CC(C)C)NC(=O)[C@H](Cc1ccccc1)NC(=O)[C@H](Cc1ccccc1)NC(=O)[C@@H](NC(=O)[C@H](CC(N)=O)NC(=O)[C@@H](NC(=O)[C@H](CCC(N)=O)NC(=O)[C@H](CC(=O)O)NC(=O)[C@H](CC(C)C)NC(=O)[C@@H](N)CO)[C@@H](C)CC)C(C)C)C(=O)N[C@@H](CCCCN)C(=O)N[C@@H](CCCCN)C(=O)N[C@@H](CC(C)C)C(=O)N[C@@H](CCC(=O)O)C(=O)N[C@@H](CCC(=O)O)C(=O)N[C@@H](C)C(=O)N[C@@H](Cc1ccc(O)cc1)C(=O)N[C@H](C(=O)N[C@@H](CC(=O)O)C(=O)N[C@@H](CC(C)C)C(=O)N[C@@H](CCCCN)C(=O)N[C@@H](CCC(=O)O)C(=O)N[C@@H](CC(C)C)C(=O)O)[C@@H](C)CC; target or system = SARS-CoV-2 Alpha pseudovirus; assay = pseudovirus infection, inhibitor, luciferase; test system = Caco-2; conditions = 24 h, dual mutations; quantity = IC50; value = 0.349 µM
Structure (SMILES) = CCN(CC)Cc1cc(N)ccc1O; target or system = Acetylcholinesterase, VR-inhibited (ACHE, Homo sapiens, UniProt P22303); assay = enzyme reactivation, reactivator; test system = VR; quantity = Kd; value = 5460 ± 2020 µM
Structure (SMILES) = C[C@H](N)C(=O)N[C@H]1CSSC[C@@H]2NC(=O)[C@H](CCCNC(=N)N)NC(=O)[C@H](CO)NC(=O)[C@H](Cc3cnc[nH]3)NC(=O)[C@H](CC(=O)O)NC(=O)[C@H](CCCNC(=N)N)NC(=O)[C@H](C)NC(=O)[C@H](Cc3c[nH]c4ccccc34)NC(=O)[C@H](CCCCN)NC(=O)[C@H](CO)NC(=O)[C@H](CO)NC(=O)[C@H](CSSC[C@@H](C(N)=O)NC2=O)NC(=O)[C@H](CC(N)=O)NC1=O; target or system = Scn4a; assay = sodium current, blocker, two-electrode voltage clamp; test system = Xenopus oocytes; quantity = Kd; value = 0.24 ± 0.05 µM
Structure (SMILES) = CC(C)[C@H](N)C(=O)NCC(=O)N[C@@H](CCC(=O)O)C(=O)N[C@@H](CCCNC(=N)N)C(=O)N[C@H]1CSSC[C@@H]2NC(=O)[C@H](Cc3c[nH]c4ccccc34)NC(=O)[C@H](CCCNC(=N)N)NC(=O)CNC(=O)[C@H](CSSC[C@@H](C(N)=O)NC(=O)[C@H](C)NC(=O)[C@H](CCCNC(=N)N)NC(=O)[C@H](CO)NC(=O)[C@H](Cc3cnc[nH]3)NC(=O)[C@H](CC(=O)O)NC(=O)[C@H](CCCNC(=N)N)NC2=O)NC(=O)CNC(=O)[C@H](CCCNC(=N)N)NC(=O)[C@H](CCCCN)NC(=O)CNC(=O)[C@H](CC(N)=O)NC(=O)[C@H](CCCCN)NC(=O)[C@H](C)NC1=O; target or system = Scn3a; assay = sodium current, blocker, two-electrode voltage clamp; test system = Xenopus laevis oocytes; quantity = Kd; value = 0.26 ± 0.03 µM
Structure (SMILES) = O=P(O)(O)C(F)(F)c1cccc(-c2ccc(CO/N=C/c3ccco3)cc2)c1; target or system = Secreted effector protein C403A/D356A; assay = surface plasmon resonance; conditions = immobilized protein; quantity = Kd; value = 148 µM

Repeated from above:
Structure (SMILES) = CC(C)[C@H](N)C(=O)NCC(=O)N[C@@H](CCC(=O)O)C(=O)N[C@@H](CCCNC(=N)N)C(=O)N[C@H]1C[Se][Se]C[C@@H]2NC(=O)[C@H](Cc3c[nH]c4ccccc34)NC(=O)[C@H](CCCNC(=N)N)NC(=O)CNC(=O)[C@H](CSSC[C@@H](C(N)=O)NC(=O)[C@H](C)NC(=O)[C@H](CCCNC(=N)N)NC(=O)[C@H](CO)NC(=O)[C@H](Cc3c[nH]cn3)NC(=O)[C@H](CC(=O)O)NC(=O)[C@H](CCCNC(=N)N)NC2=O)NC(=O)CNC(=O)[C@H](CCCNC(=N)N)NC(=O)[C@H](CCCCN)NC(=O)CNC(=O)[C@H](CC(N)=O)NC(=O)[C@H](CCCCN)NC(=O)[C@H](C)NC1=O; target or system = Scn4a; assay = sodium current, blocker, two-electrode voltage clamp; test system = Xenopus laevis oocytes; quantity = Kd; value = 0.001 µM
